Experimental data pooled from the literature.
Each line is one published result; not all experiments were run side by side. “And” joins repeats or separate records; there may be more than shown. Numbers after ± are the reported error.
BCHE: Cholinesterase (BCHE, Homo sapiens, UniProt P06276)
Chain of UniProt P06276 (whole entry, looked up): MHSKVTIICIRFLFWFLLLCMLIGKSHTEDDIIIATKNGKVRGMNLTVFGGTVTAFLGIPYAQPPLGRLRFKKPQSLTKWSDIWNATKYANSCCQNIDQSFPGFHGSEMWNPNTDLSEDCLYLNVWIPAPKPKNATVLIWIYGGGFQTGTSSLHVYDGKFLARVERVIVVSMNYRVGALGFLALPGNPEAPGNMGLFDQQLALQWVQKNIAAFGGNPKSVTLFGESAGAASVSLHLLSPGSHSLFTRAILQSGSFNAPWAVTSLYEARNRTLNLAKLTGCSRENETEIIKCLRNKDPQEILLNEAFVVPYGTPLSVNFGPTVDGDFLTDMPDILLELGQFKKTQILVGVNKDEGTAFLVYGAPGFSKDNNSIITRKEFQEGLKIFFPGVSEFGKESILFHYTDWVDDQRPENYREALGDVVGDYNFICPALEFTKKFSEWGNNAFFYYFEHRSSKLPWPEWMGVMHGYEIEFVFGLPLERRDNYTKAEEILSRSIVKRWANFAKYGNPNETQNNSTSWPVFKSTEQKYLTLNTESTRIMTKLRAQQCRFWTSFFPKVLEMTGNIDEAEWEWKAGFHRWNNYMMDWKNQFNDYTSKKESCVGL
Chain of UniProt P31751 (whole entry, looked up): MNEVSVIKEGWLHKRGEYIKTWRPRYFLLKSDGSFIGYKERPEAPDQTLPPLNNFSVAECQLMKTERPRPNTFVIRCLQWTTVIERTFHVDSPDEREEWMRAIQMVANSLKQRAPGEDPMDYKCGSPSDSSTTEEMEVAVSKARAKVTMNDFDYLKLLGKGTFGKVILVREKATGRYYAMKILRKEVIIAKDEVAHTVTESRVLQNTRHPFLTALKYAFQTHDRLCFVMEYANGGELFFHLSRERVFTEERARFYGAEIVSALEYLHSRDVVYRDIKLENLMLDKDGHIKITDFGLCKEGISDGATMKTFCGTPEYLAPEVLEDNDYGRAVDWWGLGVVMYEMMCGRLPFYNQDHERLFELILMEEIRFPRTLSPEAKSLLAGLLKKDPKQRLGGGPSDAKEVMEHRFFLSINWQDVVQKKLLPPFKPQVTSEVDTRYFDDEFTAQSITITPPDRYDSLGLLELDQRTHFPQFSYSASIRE

Structure (SMILES) = CNCCC=C1c2ccccc2CCc2ccccc21; target or system = Plasmodium falciparum; system = W2; quantity = IC50; result = 2510 nM
Structure (SMILES) = CN1CCN(S(=O)(=O)c2cc([N+](=O)[O-])ccc2N(CCOS(C)(=O)=O)CCOS(C)(=O)=O)CC1; system = NSG mice, sample CJ PDX; conditions = intraperitoneal, 25 mg/kg weekly x3; quantity = event-free survival; result = > 156 days
Structure (SMILES) = CC(C)[C@@H]1NC(=O)[C@H](Cc2ccccc2)NC(=O)[C@@H]2NC(=O)[C@H](Cc3ccccc3)NC(=O)[C@@H]3CCCN3C(=O)CNC(=O)[C@H](Cc3ccccc3)NC(=O)[C@@H]3CNCCCC[C@@H](C(=O)O)NC(=O)[C@@H]4NC(=O)[C@H](CC(N)=O)NC(=O)CNC(=O)[C@H]([C@@H](O)C(=O)O)NC(=O)[C@H](CSC[C@@H](NC(=O)[C@H](CCC(N)=O)NC(=O)[C@H](CCCCNC(=O)c5ccc(NN)nc5)NC(=O)[C@@H](N)CS[C@H]4C)C(=O)N[C@@H](CS[C@H]2C)C(=O)N3)NC1=O [technetium-99m labelled]; system = rat 45 min ischemia, 2 h reperfusion, remote viable myocardium; conditions = 2 h; how to read = reference: 2 min post-injection; quantity = fractional retention; result = 20.1 ± 4.8%
Structure (SMILES) = C#CCN(C)[C@H](C)Cc1ccccc1; test = passive avoidance, acquisition; system = APP/PS1 mice; conditions = oral, 10 mg/kg, 672 h, 4 weeks dosing; quantity = step-through latency; result = 17.8 ± 4.12 s
Structure (SMILES) = CN1[C@@H]2CC[C@H]1C[C@@H](OC(=O)C(CO)c1ccccc1)C2 (stereo partly drawn); target or system = Plasmodium falciparum; system = GB4; quantity = IC50; result = 10000 nM
Structure (SMILES) = C[C@H]1O[C@@H](O[C@H]2CC[C@@]3(C)[C@@H](CC[C@]4(C)[C@@H]3C=C[C@]35OC[C@@]6(CCC(C)(C)C[C@H]63)[C@@H](O)C[C@]54C)[C@]2(C)CO)[C@H](O)[C@@H](O[C@@H]2O[C@H](CO)[C@@H](O)[C@H](O)[C@H]2O)[C@H]1O; system = Mus musculus, chronic-plus-binge ethanol-fed, AAV8-TBG-Null vector, plasma; conditions = oral, high dose, 5 h; quantity = total cholesterol; result = 2.65 mM and 2.79 mM and 3 mM and 2.75 mM and 2.28 mM
Structure (SMILES) = Cc1ccccc1NC(=O)Nc1ccc(CC(=O)N[C@@H](CCCCNC(=O)/C=C/c2cccnc2)C(=O)N[C@@H](CCCC(=O)O)C(=O)NC2(C(=O)NCCOCCOCCOCCOCC(=O)N[C@@H](CCCCNC(=S)Nc3ccc(CCCN(CCN4CCN(CP(=O)(O)O)CCN(CP(=O)(O)O)CC4)CC(=O)O)cc3)C(N)=O)CCCCC2)cc1 [gallium-68 labelled]; system = female C57BL/6 tumour-bearing mouse; conditions = intravenous, 4 h; how to read = reference: tumour over blood; quantity = tumour-to-blood ratio; result = 18.4 ± 4.7
Structure (SMILES) = COc1cc(F)ccc1-c1c[nH]c(C(=O)NC2CCCCCCC2)c1; target or system = Vero; conditions = 48 h; quantity = IC50; result = > 64 µg/mL
Structure (SMILES) = CNC1(c2ccccc2Cl)CCCCC1=O (stereo not drawn); target or system = H+/organic cation antiporter; test = cell uptake; system = hCMEC/D3; quantity = Vmax; result = 600 pmol/min/mg protein
Structure (SMILES) = COc1c(CCC[P+](c2ccccc2)(c2ccccc2)c2ccccc2)cc2c(c1OC)OCO2.[I-]; target or system = A498; test = SRB; quantity = GI50; result = -7.58 log M
Structure (SMILES) = O=C(NCCCCN1CCN(c2cccc(Cl)c2Cl)CC1)c1cc2ccccc2s1; target or system = BCHE; test = inhibitor; conditions = with Triton; quantity = IC50; result = 25300 ± 1710 nM
Structure (SMILES) = C=CCc1ccccc1OCC(O)CNC1(C)CCC(C(C)(C)NC(=O)CBr)CC1 (stereo not drawn); target or system = Plasmodium falciparum; system = 7G8; quantity = IC50; result = 3160 nM
Structure (SMILES) = COc1c(C)c2c(c(O)c1C/C=C(\C)CCC(=O)O)C(=O)OC2; target or system = SK-OV-3; test = cell proliferation; quantity = IC50; result = 794 nM
Structure (SMILES) = COc1cc(CCC[P+](c2ccccc2)(c2ccccc2)c2ccccc2)c(OC)c2c1OCO2.[I-]; target or system = A498; test = SRB; quantity = TGI; result = -5.37 log M
Structure (SMILES) = Nc1ncnc2c1ncn2[C@@H]1O[C@@H]2COP(=O)(O)O[C@H]3[C@@H](O)[C@H](n4cnc5c(=O)[nH]cnc54)O[C@@H]3COP(=O)(O)O[C@H]2[C@H]1O; target or system = HFF-1; test = RNA sequencing Reactome analysis, refers to: Reactome R-HSA-5693538 homology directed repair; conditions = added: West Nile virus infection; how to read = reference: West Nile virus infected cells, upregulated pathway; quantity = pathway fold enrichment; result = 3.84
Structure (SMILES) = Nc1ncc(-c2nc(N3CCOCC3)nc(N3CCOCC3)n2)c(C(F)F)n1; target or system = LS174T; conditions = 72 h; quantity = GI50; result = 135 nM
Structure (SMILES) = Cc1cc(C)n2c1C=C1C=CC(CCC(=O)Nc3ccc(OCC(=O)N[C@@H]4C(=O)N5[C@@H]4SC(C)(C)[C@@H]5C(=O)[O-])cc3)=[N+]1[B-]2(F)F.[Na+]; target or system = PBP1b, Streptococcus pneumoniae; test = inhibitor; system = live Streptococcus pneumoniae cells; quantity = kinact/Ki; result = 20300 ± 1200 M⁻¹ s⁻¹
Structure (SMILES) = O=S(=O)(c1cccc2c(Cl)cccc12)N1CCCNCC1; target or system = Plasmodium falciparum; system = GB4; quantity = IC50; result = 3980 nM
Structure (SMILES) = CCCCCCC[N+](CC)(CC)CCCCc1ccc(Cl)cc1; target or system = BCHE; test = inhibitor; conditions = with Triton; quantity = IC50; result = 7830 ± 1790 nM
Structure (SMILES) = COc1nc(NCC(C)C)nc(Oc2ccc(=O)n(Cc3ccccc3)n2)n1; target or system = Plasmodium falciparum; test = parasite growth, SYBR Green; system = 3D7 DHODH E182D; conditions = 72 h; quantity = EC50; result = 5570 ± 640 nM
Structure (SMILES) = CC(=O)c1cc(O)c2ccccc2c1O; target or system = Dengue virus 2; test = viral replication; quantity = EC50; result = 320 nM
Structure (SMILES) = CC[C@H](C)[C@@H]1NC(=O)[C@@H]2CCCN2C(=O)[C@H](CC(C)C)NC(=O)[C@H](CC(C)C)NC(=O)CNC(=O)[C@@H](NC(=O)[C@@H](NC(=O)[C@H](CC(=O)O)NC(=O)CNC(=O)[C@@H](NC(=O)[C@H](C)NC(=O)CNC(=O)[C@H](CCCCN)NC(=O)[C@H](CC(C)C)NC(=O)[C@H](CC(C)C)NC(=O)[C@H](CCCCN)NC(=O)CNC(=O)[C@@H](NC(=O)[C@@H](N)CC(C)C)C(C)C)C(C)C)C(C)C)CSSC[C@@H](C(=O)O)NC1=O; test = RNA-seq, refers to: Bcl2; system = mouse, traumatic brain injury model, frontal cortex and hippocampus; conditions = dose not given; how to read = reference: TBI alone; quantity = log2 fold change; result = -0.0928
Structure (SMILES) = C[C@H](C(=O)N[C@H]1COc2ccccc2[C@@H]1S(C)(=O)=O)c1ccc(F)cc1; target or system = 5-HT4 receptor, guinea pig; test = binding; conditions = 10 µM, Eurofins selectivity panel; quantity = inhibition; result = 15%
Structure (SMILES) = COc1cc2c(cc1C(F)(F)F)N(C(=O)Nc1cc(F)cc(-c3cccnc3)c1)CC2; target or system = Plasmodium falciparum; system = W2; quantity = IC50; result = 2510 nM
Structure (SMILES) = CC(C)[C@H]1NC(=O)[C@@H]([C@H](C)O)NC(=O)[C@H](CO)NC(=O)[C@@H](CCCNC(=N)N)NC(=O)CNC(=O)[C@H](Cc2ccccc2)NC(=O)[C@H]([C@@H](C)O)NC1=O; target or system = Naegleria fowleri; conditions = trophozoites; quantity = IC50; result = > 16 µg/mL
Structure (SMILES) = C[C@H]1CN(c2n[nH]c3nc(N[C@H]4CC[C@H](NS(=O)(=O)CCC(F)(F)F)CC4)ncc23)CCO1; target or system = RAC-beta serine/threonine-protein kinase (AKT2, Homo sapiens, UniProt P31751); test = inhibitor, Kinobeads competition profiling; conditions = 20 µM; how to read = reference: vehicle; quantity = relative abundance; result = 1.24
Structure (SMILES) = CC(C)C[C@@H]1NC(=O)CNC(=O)[C@@H](Cc2ccccc2)NC(=O)[C@H](CCCCN)NC(=O)[C@@H](CCCN)NC(=O)[C@@H](C(C)C)NC1=O; target or system = Acanthamoeba castellanii; conditions = trophozoites; quantity = IC90; result = > 16 µg/mL
Structure (SMILES) = COC(=O)c1cccc(C#CCCOCCCCCCNC[C@H](O)c2cc(Cl)c(N)c(Cl)c2)c1; target or system = Plasmodium falciparum; test = parasite growth, SYBR Green; system = 3D7 wild type; conditions = 72 h; quantity = EC50; result = 1630 ± 74 nM
Structure (SMILES) = C[C@@H](O)[C@@H]1NC(=O)[C@H](Cc2ccccc2)NC(=O)[C@@H](Cc2ccccc2)NC(=O)[C@H](Cc2ccccc2)NC(=O)[C@@H](CCCN)NC(=O)[C@H](CCCCN)NC(=O)[C@@H](CCCCN)NC1=O; target or system = Naegleria fowleri; conditions = trophozoites; quantity = IC90; result = > 16 µg/mL
Structure (SMILES) = O=C(Nc1cccc(Cl)c1Cl)Nc1ccnc2ccccc12; target or system = Plasmodium falciparum; test = parasite growth, SYBR Green; system = 3D7 DHODH E182D; conditions = 72 h; quantity = EC50; result = 3480 ± 330 nM
Structure (SMILES) = C[C@]1(CO)Cc2ncn(-c3ccc(C#N)c(Cl)c3)c2C(=O)O1; system = human; conditions = 2 mg single dose; quantity = urinary sodium excretion Ae(0-24h); result = 197 mmol
Structure (SMILES) = CCNC(=O)N1CCN(CCCC(c2ccc(F)cc2)c2ccc(F)cc2)CC1; target or system = Plasmodium falciparum; system = 3D7; quantity = IC50; result = 1000 nM
Structure (SMILES) = CCCCN(C)CC#Cc1ccc2[nH]c(C)c(Cl)c(=O)c2c1; target or system = Plasmodium falciparum; test = parasite growth, SYBR Green; conditions = 72 h; how to read = reference: 3D7-E182D over 3D7; quantity = EC50 ratio; result = 2.2
Structure (SMILES) = CC[C@]1(O)C[C@H]2CN(CCc3c([nH]c4ccccc34)[C@@](C(=O)OC)(c3cc4c(cc3OC)N(C=O)[C@H]3[C@@](O)(C(=O)OC)[C@H](OC(C)=O)[C@]5(CC)C=CCN6CC[C@]43[C@@H]65)C2)C1; target or system = Plasmodium falciparum; system = Dd2; quantity = IC50; result = 100 nM
Structure (SMILES) = O=C(Nc1cccc(CN2CCN(C(=O)c3ccccc3)CC2)c1)c1cccs1.O=C(O)C(F)(F)F; target or system = Plasmodium falciparum; test = parasite growth, SYBR Green; conditions = 72 h; how to read = reference: 3D7-E182D over 3D7; quantity = EC50 ratio; result = 5.9
Structure (SMILES) = Cc1ccc2c(c1)CC[C@@](CCN(C)CCCc1nc3ccccc3[nH]1)(OC(=O)C1CC1)[C@H]2C(C)C; target or system = Plasmodium falciparum; system = HB3; quantity = IC50; result = 3980 nM
Structure (SMILES) = COc1ccc(-n2ccnc2SCC(=O)Nc2cc(C)ccc2C)c(OC)c1; target or system = Plasmodium falciparum; test = parasite growth, SYBR Green; system = 3D7 DHODH E182D; conditions = 72 h; quantity = EC50; result = 653 ± 74 nM
Structure (SMILES) = CC(C)[C@@H]1NC(=O)[C@@H](Cc2ccccc2)NC(=O)[C@H](Cc2ccccc2)NC(=O)[C@@H]([C@H](C)O)NC(=O)[C@@H](CCCNC(=N)N)NC1=O; target or system = Naegleria fowleri; conditions = trophozoites; quantity = IC50; result = > 16 µg/mL
Structure (SMILES) = COc1ccc2c(c1)[nH]c1c(C)nccc12; target or system = DU-145; test = bisulfite pyrosequencing, refers to: RASSF1A promoter CpG site 9; conditions = 10 µM, 16 h; quantity = DNA methylation; result = 94.2%

Repeated from above:
Structure (SMILES) = O=C(Nc1cccc(Cl)c1Cl)Nc1ccnc2ccccc12; target or system = Plasmodium falciparum; test = parasite growth, SYBR Green; system = 3D7 DHODH E182D; conditions = 72 h; quantity = EC50; result = 3480 ± 330 nM
Structure (SMILES) = O=C(Nc1cccc(CN2CCN(C(=O)c3ccccc3)CC2)c1)c1cccs1.O=C(O)C(F)(F)F; target or system = Plasmodium falciparum; test = parasite growth, SYBR Green; conditions = 72 h; how to read = reference: 3D7-E182D over 3D7; quantity = EC50 ratio; result = 5.9
Structure (SMILES) = Nc1ncnc2c1ncn2[C@@H]1O[C@@H]2COP(=O)(O)O[C@H]3[C@@H](O)[C@H](n4cnc5c(=O)[nH]cnc54)O[C@@H]3COP(=O)(O)O[C@H]2[C@H]1O; target or system = HFF-1; test = RNA sequencing Reactome analysis, refers to: Reactome R-HSA-5693538 homology directed repair; conditions = added: West Nile virus infection; how to read = reference: West Nile virus infected cells, upregulated pathway; quantity = pathway fold enrichment; result = 3.84
Structure (SMILES) = CC(C)[C@H]1NC(=O)[C@@H]([C@H](C)O)NC(=O)[C@H](CO)NC(=O)[C@@H](CCCNC(=N)N)NC(=O)CNC(=O)[C@H](Cc2ccccc2)NC(=O)[C@H]([C@@H](C)O)NC1=O; target or system = Naegleria fowleri; conditions = trophozoites; quantity = IC50; result = > 16 µg/mL
